Experimental data from different studies.
A part holds a random share of what one study measured.

Set 1 — method: protein binding microarray; form: double-stranded DNA, one strand shown; sample: in vitro; tested at: not given; reference: not given; reading: higher = stronger binding
Target: Histone acetyltransferase KAT6A, winged helix 1, GST fusion (KAT6A, Homo sapiens, UniProt Q92794, residues 1-85)
Setting: 8-mer, flanks averaged, mean of 2 arrays, mostly near background
Target sequence (chain): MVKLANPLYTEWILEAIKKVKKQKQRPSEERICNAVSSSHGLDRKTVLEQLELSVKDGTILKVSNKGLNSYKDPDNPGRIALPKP
For `ACATAAGG`, the E-score was -0.0767.
For `ACGGCCTC`, the E-score was 0.265.
With `ATCATCAG` the E-score was -0.07.
The E-score of `ACAAACCC` is reported as -0.0474.
The E-score of `CCCCTATC` is reported as -0.141.
The E-score of `ACGCACCG` is reported as 0.258.
`ATTTACGC` has an E-score of 0.0995.
With `CACTCCGG` the E-score was 0.0182.
For `CCCTCTCG`, the E-score was -0.0437.

Set 2 — method: protein-binding microarray; form: double-stranded DNA, one strand shown; sample: in vitro; tested at: 2200 nM top; setting: 60-bp whole probe; together with: salmon DNA 0.4 mg/ml; reference: random background probes; reading: higher = stronger binding; all sequences stand within: GCCTAGCAC … GTCTTGATTCGCTTGACGCTGCTG
Target: Interferon regulatory factor 7, full length, phosphomimetic (IRF7, Homo sapiens, UniProt Q92985, residues 1-503, S471D/S472D/S475D/S476D/S477D/S483D/S484D/S487D)
Target sequence (chain): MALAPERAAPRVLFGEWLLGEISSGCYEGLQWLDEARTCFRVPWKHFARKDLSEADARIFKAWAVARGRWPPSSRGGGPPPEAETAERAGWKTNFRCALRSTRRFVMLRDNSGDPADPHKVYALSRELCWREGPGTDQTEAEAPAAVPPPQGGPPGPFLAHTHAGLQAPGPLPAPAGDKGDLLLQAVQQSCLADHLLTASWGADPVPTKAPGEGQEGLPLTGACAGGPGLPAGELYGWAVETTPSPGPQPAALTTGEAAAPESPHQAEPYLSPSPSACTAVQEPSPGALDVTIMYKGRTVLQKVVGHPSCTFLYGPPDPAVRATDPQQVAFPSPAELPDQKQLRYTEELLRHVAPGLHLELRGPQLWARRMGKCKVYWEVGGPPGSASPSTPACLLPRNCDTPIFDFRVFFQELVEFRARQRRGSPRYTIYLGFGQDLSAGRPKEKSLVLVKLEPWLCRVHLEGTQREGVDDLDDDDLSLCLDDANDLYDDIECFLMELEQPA
Under “fitted relative affinity”, `TTAGATTTCAGTATCTATTAGTGCTAG` is recorded as 0.797 z-score.
For `TTGAGTTTTCCTTCATGTGCGTGCTAG`, “fitted relative affinity” read 1.98 z-score.
`AACGATATCGGGTATCGAGACGTGCTA` — result for “fitted relative affinity”: 0.209 z-score.
`GACGGTATCGACACTCGGGACGTGCTA`: “fitted relative affinity” 0.0607 z-score.
Under “fitted relative affinity”, `TCATCTTTCCTCACCATACTGTGCTAG` is recorded as 2.63 z-score.
`GAAGATATCGGGACTGGAGACGTGCTA` — result for “fitted relative affinity”: -0.275 z-score.
Under “fitted relative affinity”, `TAAGGTATCGGTCTCGGTTAGTGCTAG` is recorded as 0.793 z-score.
For `CAGAATCTCTCATGTTACATTGTGCTA`, “fitted relative affinity” read 0.583 z-score.
For `AAGGTTATCCATCTCAAGTAGTGCTAG`, “fitted relative affinity” read 0.179 z-score.
`GACGCACTGAGACTGGAGACGTGCTAG`: “fitted relative affinity” 0.089 z-score.

Set 3 — method: protein-binding microarray; form: double-stranded DNA, one strand shown; sample: in vitro; tested at: not given; reading: higher = stronger binding
Target: Transcriptional repressor CTCF (CTCF, Homo sapiens, UniProt P49711, residues 1-727, full length assumed)
Setting: k-mer, scored over probes, only values ≥0.25
Target sequence (chain): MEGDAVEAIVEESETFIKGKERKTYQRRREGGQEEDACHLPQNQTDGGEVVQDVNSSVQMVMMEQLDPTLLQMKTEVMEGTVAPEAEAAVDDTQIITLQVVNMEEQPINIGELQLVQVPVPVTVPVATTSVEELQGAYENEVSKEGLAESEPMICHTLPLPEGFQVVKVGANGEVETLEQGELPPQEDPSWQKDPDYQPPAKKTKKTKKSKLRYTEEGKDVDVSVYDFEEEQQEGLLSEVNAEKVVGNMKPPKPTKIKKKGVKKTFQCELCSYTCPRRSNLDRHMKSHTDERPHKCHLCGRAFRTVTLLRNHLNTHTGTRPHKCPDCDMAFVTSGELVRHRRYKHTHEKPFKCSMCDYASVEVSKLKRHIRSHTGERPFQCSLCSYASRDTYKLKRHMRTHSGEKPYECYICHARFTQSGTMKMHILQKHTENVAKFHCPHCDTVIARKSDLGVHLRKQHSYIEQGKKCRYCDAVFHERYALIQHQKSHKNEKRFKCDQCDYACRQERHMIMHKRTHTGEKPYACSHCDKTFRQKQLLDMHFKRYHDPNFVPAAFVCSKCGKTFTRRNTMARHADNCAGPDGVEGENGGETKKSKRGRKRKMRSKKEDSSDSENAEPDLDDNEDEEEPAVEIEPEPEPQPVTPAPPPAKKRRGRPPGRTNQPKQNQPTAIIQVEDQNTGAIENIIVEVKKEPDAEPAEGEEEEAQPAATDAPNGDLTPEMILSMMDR
With `GTAATATA` the E-score was 0.371.
For `AAGTTATT`, the E-score was 0.311.
`AATAAGTA` has an E-score of 0.318.
`GCGGCGCA` has an E-score of 0.336.
The E-score of `ATTACGCG` is reported as 0.295.
`TAATGTGA` has an E-score of 0.296.
The E-score of `AATATAAG` is reported as 0.342.
With `ATATTAAA` the E-score was 0.404.
The E-score of `AGTTGATA` is reported as 0.254.

Other studies, line by line
The fold induction of `PhoQ, residues 284 288 289 292 302 303 TVTVVA` is reported as 7.89 (PhoP, residues 12 14 15 18 19 VQALL (Escherichia coli, UniProt P23836); Sort-seq, item: YFP reporter; E. coli; PhoQ-PhoP variant library, together with: 10 µM Mg2+; reference: high Mg2+ state, higher = stronger signaling).

Some of these lines once more (set 3):
The E-score of `AATATAAG` is reported as 0.342.
The E-score of `AGTTGATA` is reported as 0.254.
